Measured values of several laboratories.
Parts stem from different laboratories: compare values within a part only.

Block 1 — technique: protein binding microarray; form: double-stranded DNA, one strand shown; medium: in vitro; concentration: not given; relative to: not given; reading: higher = stronger binding
Target: Histone acetyltransferase KAT6A, winged helix 1, GST fusion (KAT6A, Homo sapiens, UniProt Q92794, residues 1-85)
Notes: 8-mer, flanks averaged, mean of 2 arrays, mostly near background
Target sequence (chain): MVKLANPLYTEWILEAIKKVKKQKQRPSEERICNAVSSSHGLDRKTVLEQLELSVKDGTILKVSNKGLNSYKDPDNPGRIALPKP
Oligonucleotide | E-score
AATTTCAG | -0.0533
GATCCGAC | 0.242
ACGGATAC | 0.218
CCGCTCAA | 0.142
CAGGATGG | -0.0433
CGATCATC | -0.0149
GGGTCCGA | 0.145
CCGATATA | -0.0542
CAGGACCC | 0.0519

Block 2 — technique: competition protein-binding microarray; form: double-stranded DNA, one strand shown; medium: in vitro; concentration: 2 µM; added: Pho4 competitor, 0.05 µM; reading: higher = stronger binding; shared flanks, not repeated: … GTCTTGATTCGCTTGACGCTGCTG
Target: Centromere-binding protein 1, full length, His-tagged (CBF1, Saccharomyces cerevisiae, UniProt P17106, residues 1-351)
UniProt P17106, sequence (whole entry, looked up): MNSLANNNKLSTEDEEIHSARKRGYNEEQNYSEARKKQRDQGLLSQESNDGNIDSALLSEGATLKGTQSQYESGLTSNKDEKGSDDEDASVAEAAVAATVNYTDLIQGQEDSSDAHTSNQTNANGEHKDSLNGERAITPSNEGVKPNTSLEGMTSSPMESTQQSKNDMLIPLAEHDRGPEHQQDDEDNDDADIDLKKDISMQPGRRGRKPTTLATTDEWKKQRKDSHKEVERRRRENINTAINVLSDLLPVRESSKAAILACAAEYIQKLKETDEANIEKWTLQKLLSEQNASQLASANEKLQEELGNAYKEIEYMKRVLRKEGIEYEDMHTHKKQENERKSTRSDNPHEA
Notes: whole 60-bp probe, lowest competitor level
Oligonucleotide | fluorescence intensity [a.u.]
AAAGCGGTAATTTGTCTAGTGGGTGCAGATATCTAT | 81.3
CTTTCCCGATCTTTTCACGTGCCTTTAGCACATTTG | 911
TGCGCAACAACTTGTAAAGTGGGTGTATGTCTAGAA | 69.1
ACCCCGGAACACTGGCACGTATTTCATAAAAAGGAC | 89.4
TTAGTGCAAGAGGCACACATGCAGATTATGCATCAG | 98.1
GTCTTGTCTCATTGTACGGTGGGTGTCCCCACTTCA | 87.7
CATACCCAACCTTGATTCGTGGGTGAAGATATTTGT | 75.4

Block 3 — technique: universal PBM; form: double-stranded DNA, one strand shown; medium: in vitro; concentration: not given; reading: higher = stronger binding
Target: Sal-like protein 4, full length isoform B (SALL4, Homo sapiens, UniProt Q9UJQ4-2, residues 1-616)
Notes: 8-mer, flanks averaged, mean of replicates
Oligonucleotide | E-score
ACTTGGGG | -0.0538
ACGTAACA | 0.167
GGGCCGGA | -0.329
GAAGACGA | -0.0995
CTTATGCA | 0.211
AATCTTTG | 0.18

Single results of other studies
Substance | target | test | system | setting | how to read | endpoint | result
PhoQ, residues 284 288 289 292 302 303 AEGLLW | PhoP, residues 12 14 15 18 19 MHTVL (Escherichia coli, UniProt P23836) | Sort-seq, item: YFP reporter | E. coli | PhoQ-PhoP variant library, added: 10 µM Mg2+ | relative to: high Mg2+ state, higher = stronger signaling | fold induction | 4.92

A few entries again (block 1):
Oligonucleotide | E-score
ACGGATAC | 0.218
GATCCGAC | 0.242
